Published values pooled from the literature.
Parts stem from different laboratories: compare values within a part only. “And” joins repeats or separate records; there may be more than shown.
UniProt Q00536, sequence (whole entry, looked up): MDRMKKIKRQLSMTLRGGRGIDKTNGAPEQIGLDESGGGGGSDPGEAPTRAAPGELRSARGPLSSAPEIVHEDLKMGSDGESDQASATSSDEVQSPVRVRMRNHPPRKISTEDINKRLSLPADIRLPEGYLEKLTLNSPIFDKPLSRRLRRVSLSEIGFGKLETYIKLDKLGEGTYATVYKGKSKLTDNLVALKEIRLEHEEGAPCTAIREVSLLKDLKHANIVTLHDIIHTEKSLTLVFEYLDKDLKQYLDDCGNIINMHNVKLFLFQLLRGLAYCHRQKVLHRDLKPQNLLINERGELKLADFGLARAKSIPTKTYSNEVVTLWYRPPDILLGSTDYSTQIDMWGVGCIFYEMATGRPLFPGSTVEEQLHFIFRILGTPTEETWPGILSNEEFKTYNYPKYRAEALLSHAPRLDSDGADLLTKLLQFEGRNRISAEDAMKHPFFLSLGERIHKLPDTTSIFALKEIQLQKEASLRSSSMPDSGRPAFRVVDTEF
UniProt Q8TD19, sequence (whole entry, looked up): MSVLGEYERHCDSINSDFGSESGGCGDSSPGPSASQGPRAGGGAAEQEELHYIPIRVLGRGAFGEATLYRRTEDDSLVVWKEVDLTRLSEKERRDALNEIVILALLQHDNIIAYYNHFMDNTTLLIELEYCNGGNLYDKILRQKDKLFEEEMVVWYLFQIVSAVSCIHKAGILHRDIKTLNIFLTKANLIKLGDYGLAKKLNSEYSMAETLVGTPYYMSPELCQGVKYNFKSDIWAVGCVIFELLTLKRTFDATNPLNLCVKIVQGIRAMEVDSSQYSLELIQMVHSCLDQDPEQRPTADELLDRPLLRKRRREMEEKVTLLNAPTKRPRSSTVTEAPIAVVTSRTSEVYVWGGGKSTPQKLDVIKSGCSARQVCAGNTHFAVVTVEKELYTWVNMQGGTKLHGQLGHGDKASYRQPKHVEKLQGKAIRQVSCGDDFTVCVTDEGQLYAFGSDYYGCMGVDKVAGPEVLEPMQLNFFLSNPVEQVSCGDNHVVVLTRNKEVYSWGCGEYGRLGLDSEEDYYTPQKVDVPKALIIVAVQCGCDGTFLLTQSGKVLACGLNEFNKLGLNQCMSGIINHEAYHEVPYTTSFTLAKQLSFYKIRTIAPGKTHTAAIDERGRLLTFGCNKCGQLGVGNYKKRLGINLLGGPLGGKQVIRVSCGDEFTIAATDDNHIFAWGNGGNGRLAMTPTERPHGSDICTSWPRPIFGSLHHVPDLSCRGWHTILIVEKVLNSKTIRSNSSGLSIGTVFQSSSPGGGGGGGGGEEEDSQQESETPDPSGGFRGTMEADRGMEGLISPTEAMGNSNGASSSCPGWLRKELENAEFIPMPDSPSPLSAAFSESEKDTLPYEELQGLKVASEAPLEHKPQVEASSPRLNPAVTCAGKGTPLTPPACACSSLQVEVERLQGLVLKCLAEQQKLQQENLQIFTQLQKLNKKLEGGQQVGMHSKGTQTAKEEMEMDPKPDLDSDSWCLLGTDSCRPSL
UniProt Q9UKI8, sequence (whole entry, looked up): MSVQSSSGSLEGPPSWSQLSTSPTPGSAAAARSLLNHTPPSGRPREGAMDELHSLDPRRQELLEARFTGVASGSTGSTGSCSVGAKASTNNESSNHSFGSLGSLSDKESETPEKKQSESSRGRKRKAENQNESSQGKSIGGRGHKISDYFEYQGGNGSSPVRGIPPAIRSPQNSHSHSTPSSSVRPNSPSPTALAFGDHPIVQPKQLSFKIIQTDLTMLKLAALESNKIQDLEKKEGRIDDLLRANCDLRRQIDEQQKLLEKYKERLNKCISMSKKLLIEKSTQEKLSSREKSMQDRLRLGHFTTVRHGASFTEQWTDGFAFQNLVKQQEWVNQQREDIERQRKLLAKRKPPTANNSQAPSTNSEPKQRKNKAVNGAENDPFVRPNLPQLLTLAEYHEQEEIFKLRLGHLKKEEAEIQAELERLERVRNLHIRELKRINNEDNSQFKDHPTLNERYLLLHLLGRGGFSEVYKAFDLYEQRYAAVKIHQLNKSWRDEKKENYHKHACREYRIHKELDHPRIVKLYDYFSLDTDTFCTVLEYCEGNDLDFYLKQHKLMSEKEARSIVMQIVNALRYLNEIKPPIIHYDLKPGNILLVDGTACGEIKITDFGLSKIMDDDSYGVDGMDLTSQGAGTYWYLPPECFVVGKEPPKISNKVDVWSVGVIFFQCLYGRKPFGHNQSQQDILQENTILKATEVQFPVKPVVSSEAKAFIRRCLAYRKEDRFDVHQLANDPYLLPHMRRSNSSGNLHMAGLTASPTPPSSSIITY
UniProt P23443, sequence (whole entry, looked up): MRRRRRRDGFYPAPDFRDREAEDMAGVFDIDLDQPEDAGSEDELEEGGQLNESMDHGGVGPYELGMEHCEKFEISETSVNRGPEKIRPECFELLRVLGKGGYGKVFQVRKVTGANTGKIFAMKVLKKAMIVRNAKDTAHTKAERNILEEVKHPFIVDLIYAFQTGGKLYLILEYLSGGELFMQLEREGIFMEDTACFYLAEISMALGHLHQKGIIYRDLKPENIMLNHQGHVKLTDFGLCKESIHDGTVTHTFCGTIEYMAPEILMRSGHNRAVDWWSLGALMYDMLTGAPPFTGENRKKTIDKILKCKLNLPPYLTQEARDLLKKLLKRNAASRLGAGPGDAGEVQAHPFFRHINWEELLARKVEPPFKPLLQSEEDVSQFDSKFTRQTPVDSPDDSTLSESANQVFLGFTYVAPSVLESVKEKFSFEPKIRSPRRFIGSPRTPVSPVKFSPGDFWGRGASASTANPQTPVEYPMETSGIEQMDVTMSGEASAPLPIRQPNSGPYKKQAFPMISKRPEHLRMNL
UniProt P42336, sequence (whole entry, unmodified, looked up): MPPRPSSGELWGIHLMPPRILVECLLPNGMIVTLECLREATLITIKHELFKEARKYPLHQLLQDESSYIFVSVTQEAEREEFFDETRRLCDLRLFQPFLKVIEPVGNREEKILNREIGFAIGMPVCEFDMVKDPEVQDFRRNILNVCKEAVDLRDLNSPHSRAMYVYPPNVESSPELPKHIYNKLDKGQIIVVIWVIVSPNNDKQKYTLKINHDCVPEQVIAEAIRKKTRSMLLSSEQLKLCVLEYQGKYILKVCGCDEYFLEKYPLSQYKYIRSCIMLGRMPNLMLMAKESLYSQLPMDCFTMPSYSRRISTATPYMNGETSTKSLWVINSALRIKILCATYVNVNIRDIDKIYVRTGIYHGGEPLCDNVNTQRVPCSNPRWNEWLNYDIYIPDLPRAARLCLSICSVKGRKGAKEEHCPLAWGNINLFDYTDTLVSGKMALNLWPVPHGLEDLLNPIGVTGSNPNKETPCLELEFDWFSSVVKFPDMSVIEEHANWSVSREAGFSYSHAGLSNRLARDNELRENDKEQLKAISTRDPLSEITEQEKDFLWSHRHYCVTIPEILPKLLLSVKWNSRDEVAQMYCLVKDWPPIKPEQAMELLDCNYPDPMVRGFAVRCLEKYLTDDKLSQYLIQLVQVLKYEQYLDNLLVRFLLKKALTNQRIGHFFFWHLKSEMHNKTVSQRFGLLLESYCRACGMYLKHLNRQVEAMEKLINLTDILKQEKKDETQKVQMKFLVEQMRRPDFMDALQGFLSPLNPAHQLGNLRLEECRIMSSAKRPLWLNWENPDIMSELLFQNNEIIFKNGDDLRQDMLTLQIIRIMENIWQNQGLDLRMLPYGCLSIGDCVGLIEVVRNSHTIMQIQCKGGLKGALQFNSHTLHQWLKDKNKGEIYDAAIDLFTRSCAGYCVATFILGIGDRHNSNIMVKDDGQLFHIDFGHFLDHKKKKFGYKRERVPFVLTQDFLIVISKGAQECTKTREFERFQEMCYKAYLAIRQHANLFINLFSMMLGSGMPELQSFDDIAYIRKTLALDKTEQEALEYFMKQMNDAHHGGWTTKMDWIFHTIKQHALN
UniProt O95747, sequence (whole entry, looked up): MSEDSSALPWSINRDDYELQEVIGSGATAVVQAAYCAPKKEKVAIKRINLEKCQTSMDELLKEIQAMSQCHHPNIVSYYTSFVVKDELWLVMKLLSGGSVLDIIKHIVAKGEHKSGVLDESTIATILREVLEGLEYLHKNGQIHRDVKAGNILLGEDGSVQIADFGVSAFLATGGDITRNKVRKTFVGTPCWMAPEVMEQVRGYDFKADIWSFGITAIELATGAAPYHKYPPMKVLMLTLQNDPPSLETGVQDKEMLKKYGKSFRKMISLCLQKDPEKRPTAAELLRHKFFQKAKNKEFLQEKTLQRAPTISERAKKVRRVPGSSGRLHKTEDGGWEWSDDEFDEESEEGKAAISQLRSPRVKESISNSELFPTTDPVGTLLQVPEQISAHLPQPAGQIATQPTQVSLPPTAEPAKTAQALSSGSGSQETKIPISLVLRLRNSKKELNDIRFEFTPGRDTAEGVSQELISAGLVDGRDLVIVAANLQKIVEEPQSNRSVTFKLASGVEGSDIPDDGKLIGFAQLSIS

Block 1
Species: mouse
Matrix: microsomes or S9
Concentration: 2 µM
Time: 0.5 h
`Cc1ccc(F)c(N2CCC(NS(=O)(=O)c3cnc4c(c3)c(C)nn4C)CC2)c1` gave a remaining compound of 0.278%.
With `CC(C)(C)OC(=O)N[C@@H](CC(=O)N1CCCN(C(=O)CN2CCC(c3ccccc3)CC2)CC1)Cc1cc(F)c(F)cc1F` the remaining compound was less than 1%.
For `COc1cccc(CN2CCC(C(=O)N3CCN(Cc4ccc5c(c4)OCO5)CC3)CC2)c1OC`, the remaining compound was 50.5%.
`Cc1c2cnn(CC(=O)NC3CCCc4ccccc43)c(=O)c2c(C)n1Cc1cccc(Cl)c1` (stereo not drawn) gave a remaining compound of 0.442%.

Block 2
Structure (SMILES): CC(=O)N[C@@H](Cc1c[nH]c2ccccc12)C(=O)N[C@@H](CCC(=O)C=[N+]=[N-])C(=O)OC(C)C
For C57BL/6 CES1-/- mouse, EL4 tumour; intravenous, 1 mg/kg DON equivalent, treatment day 11, 5 days per week: tumour volume read 185 mm3 and 115 mm3 and 150 mm3 and 376 mm3 and 218 mm3 and 214 mm3 and 300 mm3 and 351 mm3.
The tumour volume was 0 mm3 (mice, MC-38 tumour rechallenge; 0.26 mg/kg, day 46 after injection).
For mice, MC-38 tumour rechallenge; 1 mg/kg, day 35 after injection: tumour volume read 0 mm3.
mice, MC-38 tumour rechallenge; 1 mg/kg, day 14 after injection — tumour volume: 0 mm3.

Block 3
Compound: CC(=O)C1=C(C)N(c2cccc(C(F)(F)F)c2)C(=O)N[C@@H]1c1ccc(C#N)nc1
Read-out: cell-free assay
Technique: competition with immobilised ligand
Concentration: 1 µM
Serine/threonine-protein kinase ULK3 (ULK3, Homo sapiens, UniProt Q6PHR2) — remaining binding: 100%.
For Serine/threonine-protein kinase D1 (PRKD1, Homo sapiens, UniProt Q15139): remaining binding read 95.7%.
Cyclin-dependent kinase 16 (CDK16, Homo sapiens, UniProt Q00536) — remaining binding: 100%.
It gave 100% for remaining binding (Serine/threonine-protein kinase 26 (STK26, Homo sapiens, UniProt Q9P289)).
The remaining binding was 100% (Ephrin type-B receptor 4 (EPHB4, Homo sapiens, UniProt P54760)).
For Ribosomal protein S6 kinase beta-1 (RPS6KB1, Homo sapiens, UniProt P23443): remaining binding read 93.8%.
For Serine/threonine-protein kinase OSR1 (OXSR1, Homo sapiens, UniProt O95747): remaining binding read 100%.
It gave 100% for remaining binding (Serine/threonine-protein kinase Nek9 (NEK9, Homo sapiens, UniProt Q8TD19)).
Phosphatidylinositol 4,5-bisphosphate 3-kinase catalytic subunit alpha isoform (PIK3CA, Homo sapiens, UniProt P42336, C420R) — remaining binding: 100%.
Fibroblast growth factor receptor 3 (FGFR3, Homo sapiens, UniProt P22607, G697C) — remaining binding: 100%.
For Serine/threonine-protein kinase tousled-like 1 (TLK1, Homo sapiens, UniProt Q9UKI8): remaining binding read 85.3%.
Interleukin-1 receptor-associated kinase 4 (IRAK4, Homo sapiens, UniProt Q9NWZ3) — remaining binding: 100%.
It gave 100% for remaining binding (NUAK family SNF1-like kinase 2 (NUAK2, Homo sapiens, UniProt Q9H093)).
Macrophage-stimulating protein receptor (MST1R, Homo sapiens, UniProt Q04912) — remaining binding: 81.1%.
It gave 97.4% for remaining binding (Proto-oncogene tyrosine-protein kinase receptor Ret (RET, Homo sapiens, UniProt P07949, V804L)).

Block 4
Cell line: mouse MPNST tumor cells
Technique: high-content nuclear imaging
Refers to: cell number
Concentration: 10 µM
Time: 12 h
Notes: mean of 2 replicates
Relative to: plate mean
Direction: higher = more cells
The nuclei count of `COc1ccc2c(c1)c(CC(=O)O)c(C)n2C(=O)c1ccc(Cl)cc1` is reported as 2.82 z-score.
For `CC[C@H](c1ccc(O)cc1)[C@@H](CC)c1ccc(O)cc1`, the nuclei count was 0.117 z-score.
`Cc1c(O)c(=O)n(-c2ccccc2)n1C` gave a nuclei count of 0.785 z-score.
With `C[N+]1(C)CCC(=C(c2ccccc2)c2ccccc2)CC1` the nuclei count was 0.692 z-score.
`O=C(O)CNC(=O)C(CS)Cc1ccccc1` (stereo not drawn) has a nuclei count of 0.616 z-score.
With `Cc1nc(C#Cc2cccnc2)cs1` the nuclei count was 0.739 z-score.
`CN(C)[C@@H]1CCc2[nH]c3ccc(NC(=O)c4ccc(F)cc4)cc3c2C1` gave a nuclei count of 5.46 z-score.

Block 5
Target: Beta-1 adrenergic receptor (ADRB1, Homo sapiens, UniProt P08588)
UniProt P08588, sequence (whole entry, looked up): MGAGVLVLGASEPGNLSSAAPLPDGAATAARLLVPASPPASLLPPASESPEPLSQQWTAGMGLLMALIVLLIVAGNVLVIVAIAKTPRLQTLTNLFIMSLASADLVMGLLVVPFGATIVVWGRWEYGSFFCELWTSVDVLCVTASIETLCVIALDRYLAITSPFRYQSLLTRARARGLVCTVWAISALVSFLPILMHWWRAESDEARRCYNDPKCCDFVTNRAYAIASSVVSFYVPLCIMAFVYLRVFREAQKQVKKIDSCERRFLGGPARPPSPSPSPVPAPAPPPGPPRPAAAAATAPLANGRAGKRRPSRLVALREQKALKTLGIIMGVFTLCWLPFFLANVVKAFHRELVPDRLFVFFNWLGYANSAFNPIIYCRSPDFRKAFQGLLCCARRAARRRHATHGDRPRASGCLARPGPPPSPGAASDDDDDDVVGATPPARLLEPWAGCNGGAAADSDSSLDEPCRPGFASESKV
Mode: antagonist
The IC50 of `Cc1cnccc1CN(C)Cc1ccc2c(C)cc(=O)oc2c1` is reported as no less than 100 µM.
For `C[C@@H]1CN(CC(=O)Nc2ccc3c(c2)Cc2cccc(-c4cc(=O)cc(N5CCOCC5)o4)c2S3)C[C@H](C)O1`, the IC50 was no less than 100 µM.
For `COc1ccccc1N1CCN(CC2CN3C(=O)N(C)c4ccccc4C3=N2)CC1` (stereo not drawn), the IC50 was no less than 100 µM.
With `COc1cccc(F)c1C(=O)Nc1ccc2ccccc2n1` the IC50 was no less than 100 µM.
With `Brc1ccccc1-c1noc(-c2c[nH]nc2-c2ccccc2)n1` the IC50 was no less than 100 µM.
`Oc1ccccc1N1CCN(c2ccc3ccccc3n2)CC1` has an IC50 of no less than 100 µM.

For quick reference, copied from above (block 3):
It gave 100% for remaining binding (NUAK family SNF1-like kinase 2 (NUAK2, Homo sapiens, UniProt Q9H093)).
Interleukin-1 receptor-associated kinase 4 (IRAK4, Homo sapiens, UniProt Q9NWZ3) — remaining binding: 100%.
